Experimental data gathered from unrelated publications.
Parts stem from different laboratories: compare values within a part only. Several values in a cell are separate wells, animals, samples, runs or records.

Sample 1
Cell line: HEK-293T-ACE2-TMPRSS2
Technique: cell count
Concentration: concentration not given
`CN(CC1COc2ccccc2O1)c1ccc(-c2nc(C3CC3)no2)cn1` (stereo not drawn) has a viability of 109%.
The viability of `CC(C)C1CN(C(=O)c2ccc3cccnc3c2O)CCCN1CC1CC1` (stereo not drawn) is reported as 67%.
With `Cc1csc(NC(=O)c2cn(-c3ccc(-c4noc(C5CC5)n4)cc3)nc2C)n1` the viability was 65%.
`COc1ccc(-c2ccnc(N)n2)cc1` has a viability of 99%.

Further values, each from its own experiment
With `[N-]=[N+]=CC(=O)CC[C@H](N)C(=O)O` the haemoglobin was 8.7 g/dL and 4.9 g/dL and 7.7 g/dL (C57BL/6 CES1-/- mouse; intravenous, 1 mg/kg).
With `COC1=CC=C2C3Cc4ccc(OC)c5c4C2(CCN3C)C1O5` (stereo not drawn) the remaining compound was 82.9% (human, microsomes or S9; 2 µM, 0.5 h).
`CC(=O)N[C@@H](Cc1c[nH]c2ccccc12)C(=O)N[C@@H](CCC(=O)C=[N+]=[N-])C(=O)OC(C)C` gave a haemoglobin of 6.8 g/dL and 7.5 g/dL and 8.1 g/dL (C57BL/6 CES1-/- mouse; intravenous, 1 mg/kg).
`O=C1N=C(O)N=C(O)C1C1c2ccccc2Oc2nc(O)nc(O)c21` (stereo not drawn) has a remaining compound of 98.7% (human, microsomes or S9; 2 µM, 0.5 h).
With `CN(C)CC[C@@H](c1ccc(Cl)cc1)c1ccccn1` the viability was 104% (HEK-293T/ACE2; 10 µM, 16 h; relative to: vehicle).

For quick reference, copied from above (sample 1):
With `Cc1csc(NC(=O)c2cn(-c3ccc(-c4noc(C5CC5)n4)cc3)nc2C)n1` the viability was 65%.
